Measurements from different studies.
Changes are numbered by the printed parent chain. ± gives the spread as reported.
bin: bin 311-408 (Drosophila melanogaster, UniProt Q9VS05)
Ovol1: Ovol1 (Mus musculus, UniProt Q9WTJ2)
WDR33 full length assumed: WDR33 full length assumed (Homo sapiens, UniProt Q9C0J8)
WRKY45-1: WRKY45-1 104-182 (Oryza sativa, UniProt Q5W6D6)
P1: METTL9 full-length, 1-318 (Homo sapiens); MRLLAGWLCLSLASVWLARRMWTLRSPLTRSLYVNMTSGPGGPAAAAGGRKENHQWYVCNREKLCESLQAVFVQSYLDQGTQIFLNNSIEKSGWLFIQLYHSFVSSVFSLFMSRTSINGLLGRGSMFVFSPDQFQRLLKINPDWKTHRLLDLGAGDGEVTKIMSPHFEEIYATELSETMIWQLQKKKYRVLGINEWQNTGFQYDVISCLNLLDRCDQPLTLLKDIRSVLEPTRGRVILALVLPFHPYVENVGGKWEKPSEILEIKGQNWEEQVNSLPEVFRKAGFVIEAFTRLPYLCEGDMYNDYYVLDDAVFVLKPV
B1: SULT1A1 (Homo sapiens, UniProt P50225); chain MELIQDTSRPPLEYVKGVPLIKYFAEALGPLQSFQARPDDLLISTYPKSGTTWVSQILDMIYQGGDLEKCHRAPIFMRVPFLEFKAPGIPSGMETLKDTPAPRLLKTHLPLALLPQTLLDQKVKVVYVARNAKDVAVSYYHFYHMAKVHPEPGTWDSFLEKFMVGEVSYGSWYQHVQEWWELSRTHPVLYLFYEDMKENPKREIQKILEFVGRSLPEETVDFVVQHTSFKEMKKNPMTNYTTVPQEFMDHSISPFMRKGMAGDWKTTFTVAQNERFDADYAEKMAGCSLSFRSEL

Molecule | tested on | assay | test system | setting | scale | quantity | value
ATTTATTATTGTGACACAAGCTTAGT (dsDNA) | STM full length assumed (Arabidopsis thaliana, UniProt Q38874) | EMSA | double-stranded DNA, one strand shown |  |  | binding | binds
MYO10 S1060A (Homo sapiens) | BTRC | co-IP | HEK293T | with: MG132 | reference: unchanged protein, higher = more binding | relative binding | 0.64
TTAATGTTGTTTTGTTTCCGCCA (dsDNA) | bin | EMSA | double-stranded DNA, one strand shown | not purified |  | binding | binds
DNA 1 AGCGTGGGCGGGTTA / DNA 2 TAACCCGCCCACGC (dsDNA) | WT1 ZF1-4, -KTS, 319-437 M342R (Homo sapiens) | fluorescence polarization | double-stranded DNA |  |  | binding | binds
GGTGGGTTGTCAATGCGCTTTCCCAACGCA (dsDNA) | Ovol1 | EMSA | double-stranded DNA, one strand shown |  |  | binding | no binding
CUAUUAAUUUAAUUAUUUAAUAAUAUUUAUAUUAAACUCC (ssRNA) | CTNNB1 full length assumed (Homo sapiens, UniProt P35222) | EMSA | RNA |  |  | binding | binds
GGGUAACCAUUAUAACCUCCAAUAAAGAACUUAACAACAC (ssRNA) | WDR33 full length assumed | UV cross-linking | RNA | within CPSF complex |  | binding | binds
GTGTTAGTTGGGGGGTGACTGTTAA (dsDNA; 25 bp duplex) | TFAM 43-246 (Homo sapiens, UniProt Q00059) | FRET | double-stranded DNA, one strand shown | apparent, cooperative Hill model |  | Kd | 0.0044 ± 0.0003 µM
GGTGGGTTGTCACCGTTATTTCCCAACGCA (dsDNA) | Ovol1 | EMSA | double-stranded DNA, one strand shown |  |  | binding | binds
GAATCTTGGAAGCATACAATGTGGAGAC (ssDNA) | ZTA1 1-336 (Komagataella phaffii, UniProt F2QTB9) | EMSA | single-stranded DNA |  |  | binding | binds
P1 C297A | SLC39A7 residues 66-74 | ITC |  | with: SAH 2 mM |  | Kd | 31.2 µM
GGGUAAUGCCCCUCCCCUCUCACACCUCCGGGAUCAGUGACCGGAGGGCGGUCGGGGAGGGGUGUCCU (structured RNA (Pyrococcus abyssi); hairpin, internal loop, K-turn) | truB full length assumed (Pyrococcus abyssi, UniProt Q9V1A5) | competition | folded RNA |  |  | binding | no binding
ACAGCCTGACAGGG (dsDNA) | WRKY45-1 | EMSA | double-stranded DNA, one strand shown |  |  | binding | no binding
GCAUGCGACCUUUCGAGGUCGCAUGC (hairpin RNA; 5'-OH, 11 bp, blunt) | RIGI 2-925 (Homo sapiens, UniProt O95786) | NMR | folded RNA | no nucleotide |  | binding | binds
TTTTACTGACGGCG (dsDNA) | WRKY45-1 | EMSA | double-stranded DNA, one strand shown |  |  | binding | no binding
P1 D213S | SLC39A7 residues 66-74 | ITC |  | with: SAH 2 mM |  | Kd | 32.4 µM
TTAATGGTTTGCCGTTGTCGCCA (dsDNA) | bin | competition | double-stranded DNA, one strand shown | not purified |  | binding | no binding
MYO10 S1066A (Homo sapiens) | BTRC | co-IP | HEK293T | with: MG132 | reference: unchanged protein, higher = more binding | relative binding | 0.44
TTCCGGGTTGTTTATTCAGATT (dsDNA) | bin | EMSA | double-stranded DNA, one strand shown | not purified |  | binding | binds
DNA 1 GTCGACCAGCTGAGTCGACCAGCTG / DNA 2 CAGCTGGTCGAC / DNA 3 CAGCTGGTCGAC (dsDNA; nicked, N6-methyl-dA) | YTHDF2 391-579 (Homo sapiens, UniProt Q9Y5A9) | pull-down | double-stranded DNA |  |  | binding | binds
TTGGTCGCTGCA (dsDNA) | zim-2 450-570 (Caenorhabditis elegans, UniProt O18067) | ITC | double-stranded DNA, one strand shown |  |  | binding | binds
SULT1E1 (Homo sapiens, UniProt P49888) | O=C(O[C@@H]1Cc2c(O)cc(O)cc2O[C@@H]1c1cc(O)c(O)c(O)c1)c1cc(O)c(O)c(O)c1 | steady-state kinetics |  | pH 7.4, not purified |  | Vmax/Km | 2540 µL/min/mg
CAATACAATTGTCTCTGTGTAGTAAATTTCCTACGTTTCATCTGAAAATCTAGCTATTAGAG (dsDNA) | cdc6-1 full length assumed (Saccharolobus solfataricus, UniProt Q980N4) | EMSA | double-stranded DNA, one strand shown |  |  | binding | binds
TGATAGAATCTTCATCATGTTTCTTACACTTCTCA (dsDNA) | Heat shock factor protein HSF8 (Solanum lycopersicum, UniProt Q40152) | EMSA | double-stranded DNA, one strand shown |  |  | binding | binds
GGGUAACCAUUAUAACCUGCAAUAAACAACUUAACAACAC (ssRNA) | WDR33 full length assumed | UV cross-linking | RNA | within CPSF complex |  | binding | binds
B1 (SULT1A1) | O=C(O[C@@H]1Cc2c(O)cc(O)cc2O[C@@H]1c1cc(O)c(O)c(O)c1)c1cc(O)c(O)c(O)c1 | steady-state kinetics |  | pH 7.4, not purified, with: EGCG 0–0.4 µM |  | Vmax/Km | 94000 µL/min/mg
